Assay results from different studies.
± gives the spread as reported.

| SMILES | assay | system | setting | scale | quantity | result |
| --- | --- | --- | --- | --- | --- | --- |
| O=c1c(O)c(-c2cc(O)ccc2O)oc2cc(O)cc(O)c12 | DPPH radical scavenging | – | 500 µg/mL | – | inhibition | 78.5 ± 1.17% |
| N=C(N)NCCC[C@H](NC(=O)[C@@H]1CCCN1C(=O)[C@@H]1CSSC[C@H](N)C(=O)N[C@@H](Cc2ccc(O)cc2)C(=O)N[C@@H](Cc2ccccc2)C(=O)N[C@@H](CCC(N)=O)C(=O)N[C@@H](CC(N)=O)C(=O)N1)C(=O)NCC(N)=O | – | male Sprague-Dawley rat, conscious | intra-arterial, 5 ng/kg | relative to: pre-injection baseline | peak heart rate decrease | 16 beats/min |
| CC[C@H](C)[C@H](NC(=O)[C@@H](NC(=O)[C@H](CC(=O)O)NC(C)=O)[C@@H](C)O)C(=O)N[C@@H](CCCNC(=N)N)C(=O)N[C@@H](CC(C)C)C(=O)N[C@@H](CC(C)C)C(=O)N[C@@H](Cc1ccccc1)C(=O)N[C@@H](CCC(N)=O)C(=O)N[C@@H](CC(C)C)C(=O)N[C@@H](CCSC)C(=O)N[C@@H](CCCNC(=N)N)C(=O)N1CCC[C@H]1C(=O)N1CCC[C@H]1C(=O)N[C@@H](CC(N)=O)C(=O)N[C@@H](CCSC)C(=O)N[C@H](C(=O)N1CCC[C@H]1C(=O)N[C@@H](C)C(=O)N[C@H](C(=O)N[C@@H](CC(N)=O)C(=O)N[C@@H](C)C(N)=O)C(C)C)[C@@H](C)O | measured: HA-15 tetramer | antigen-experienced tetramer+ CD4 T cells, healthy adults, HLA-DRB1*0101 | dose not given | – | α4β7− CCR9− cells | 9.09% |
| C#CC[C@H](NC(=O)CNC(=O)[C@H](CO)NC(=O)[C@@H]1CCCCNC(=O)CCCC(=O)N[C@@H](CCSC)C(=O)N[C@@H](Cc2c[nH]c3ccccc23)C(=O)N2CCC[C@H]2C(=O)N[C@@H](Cc2c[nH]cn2)C(=O)N[C@@H](CCCNC(=N)N)C(=O)N[C@@H](C(C)C)C(=O)N[C@@H]([C@@H](C)O)C(=O)N[C@@H](C)C(=O)N(C)[C@@H](C)C(=O)N1)C(=O)O | – | athymic nude mouse, OVCAR-8 intraperitoneal | intraperitoneal, 10 mg/kg 3 times weekly, 3 weeks | relative to: untreated | total tumour mass | no effect |
| CC(COC(=O)c1ccccc1)OC(=O)C(N)Cc1ccccc1 (mixture of isomers) | – | Caco-2 cell homogenate | prodrug to BA-PG step | – | hydrolysis rate constant | 0.192 min⁻¹ |
| CN(C)CCN(Cc1ccccc1)C(=O)c1cc(-c2ccc(F)cc2)n2nc(C(C)(C)C)cc2n1 | – | Tg6799 mouse, cortex | dose not given, four months | – | fibrinogen infiltration | decreased |
| CSCCNC(=O)CCC(C)C1CCC2C3C(O)CC4CC(O)CCC4(C)C3CCC12C (stereo not shown) | – | SPF mice, serum | oral gavage, dose not given | relative to: vehicle | serum FGF15 | decreased |
| CC[C@H](C)[C@H](NC(=O)[C@H](CCCNC(=N)N)NC(=O)[C@H](CCC(N)=O)NC(=O)[C@H](CC(=O)O)NC(=O)[C@H](CC(C)C)NC(=O)[C@H](CC(C)C)NC(=O)[C@H](CC(N)=O)NC(=O)[C@H](Cc1ccccc1)NC(=O)[C@H](CC(=O)O)NC(=O)[C@@H](NC(=O)[C@@H](NC(=O)[C@H](CC(N)=O)NC(=O)CNC(=O)[C@H](CO)NC(C)=O)C(C)C)[C@@H](C)CC)C(=O)N[C@H](C(=O)N[C@@H](Cc1c[nH]c2ccccc12)C(=O)N[C@@H](CCC(N)=O)C(=O)N[C@@H](CC(N)=O)C(=O)N[C@@H](Cc1c[nH]c2ccccc12)C(=O)N[C@@H](Cc1ccc(O)cc1)C(=O)N[C@@H](C)C(N)=O)[C@@H](C)CC | measured: HA-02 tetramer | antigen-experienced tetramer+ CD4 T cells, healthy adults, HLA-DRB1*0101 | dose not given | – | α4β7+ CCR9+ cells | 14.3% |
| CC[C@H](C)[C@H](NC(=O)CN)C(=O)N[C@@H](CC(C)C)C(=O)N[C@@H](CCCCN)C(=O)N[C@@H](Cc1ccccc1)C(=O)N[C@@H](CC(C)C)C(=O)N[C@@H](CCC(=O)O)C(=O)N[C@@H](CO)C(=O)N[C@@H](C)C(=O)N[C@@H](CCCCN)C(=O)N[C@@H](CCCCN)C(=O)N[C@@H](Cc1c[nH]c2ccccc12)C(=O)N[C@@H](CC(C)C)C(=O)N[C@@H](CCC(=O)O)C(=O)N[C@@H](C)C(=O)N[C@@H](Cc1ccccc1)C(=O)N[C@@H](CC(C)C)C(=O)N[C@@H](C)C(=O)N[C@@H](CCC(=O)O)C(=O)N[C@H](C(=O)N[C@@H](CCSC)C(=O)N[C@@H](CC(N)=O)C(=O)N[C@@H](CO)C(=O)O)[C@@H](C)CC | carboxyfluorescein release, stopped-flow fluorescence | POPC vesicles 50 µM | up to 1 µM, pH 7.5, peptide/lipid 1:50 | – | time constant | 13.5 s |
| CC(C)C[C@H](NC(=O)[C@H](CCCCN)NC(=O)[C@H](CCCNC(=N)N)NC(=O)[C@@H](CC(C)C)NC(=O)[C@H](Cc1c[nH]c2ccccc12)NC(=O)[C@H](CC(=O)O)NC(=O)[C@H](CCCCN)NC(=O)[C@@H](CC(C)C)NC(=O)[C@H](CCCNC(=N)N)NC(=O)[C@H](CCC(N)=O)NC(=O)[C@@H](NC(=O)[C@@H](CC(C)C)NC(=O)[C@H](CCCNC(=N)N)NC(=O)[C@H](CCCCN)NC(=O)[C@H](Cc1ccc(C(C)(C)C)cc1)NC(=O)CN)C(C)C)C(=O)N[C@H](C(N)=O)C(C)C | ELISA | C57BL/6 mouse, catheter infection, peri-catheter tissue | dose not given, 3 d | relative to: untreated infected | TNF-alpha level | decreased |

Excerpt of the above:
| SMILES | assay | system | setting | scale | quantity | result |
| --- | --- | --- | --- | --- | --- | --- |
| CC[C@H](C)[C@H](NC(=O)CN)C(=O)N[C@@H](CC(C)C)C(=O)N[C@@H](CCCCN)C(=O)N[C@@H](Cc1ccccc1)C(=O)N[C@@H](CC(C)C)C(=O)N[C@@H](CCC(=O)O)C(=O)N[C@@H](CO)C(=O)N[C@@H](C)C(=O)N[C@@H](CCCCN)C(=O)N[C@@H](CCCCN)C(=O)N[C@@H](Cc1c[nH]c2ccccc12)C(=O)N[C@@H](CC(C)C)C(=O)N[C@@H](CCC(=O)O)C(=O)N[C@@H](C)C(=O)N[C@@H](Cc1ccccc1)C(=O)N[C@@H](CC(C)C)C(=O)N[C@@H](C)C(=O)N[C@@H](CCC(=O)O)C(=O)N[C@H](C(=O)N[C@@H](CCSC)C(=O)N[C@@H](CC(N)=O)C(=O)N[C@@H](CO)C(=O)O)[C@@H](C)CC | carboxyfluorescein release, stopped-flow fluorescence | POPC vesicles 50 µM | up to 1 µM, pH 7.5, peptide/lipid 1:50 | – | time constant | 13.5 s |
